Measured values gathered from unrelated publications.
Lines come from different studies, so protocols differ. ± gives the spread as reported.
OPRM1: Mu-type opioid receptor (OPRM1, Homo sapiens, UniProt P35372)
Slc6a4: Sodium-dependent serotonin transporter (Slc6a4, Rattus norvegicus, UniProt P31652)
OPRK1: Kappa-type opioid receptor (OPRK1, Homo sapiens, UniProt P41145)
Slc6a3: Sodium-dependent dopamine transporter (Slc6a3, Rattus norvegicus, UniProt P23977)

Protein sequences, listed by entry. Tags and fused reporters are not part of them. Residues count along the entry.
UniProt P35372, whole entry: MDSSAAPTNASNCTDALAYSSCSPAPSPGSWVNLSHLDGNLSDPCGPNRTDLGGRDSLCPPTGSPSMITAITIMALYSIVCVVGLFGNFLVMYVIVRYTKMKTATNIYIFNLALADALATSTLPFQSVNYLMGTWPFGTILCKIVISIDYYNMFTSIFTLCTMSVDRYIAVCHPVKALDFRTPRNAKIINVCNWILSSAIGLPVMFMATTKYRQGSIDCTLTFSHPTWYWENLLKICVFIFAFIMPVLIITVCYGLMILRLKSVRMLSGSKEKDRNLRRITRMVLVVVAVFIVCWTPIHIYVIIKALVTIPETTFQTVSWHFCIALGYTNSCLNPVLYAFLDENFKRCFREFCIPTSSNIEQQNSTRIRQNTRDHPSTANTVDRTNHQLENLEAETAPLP
UniProt P31652, whole entry: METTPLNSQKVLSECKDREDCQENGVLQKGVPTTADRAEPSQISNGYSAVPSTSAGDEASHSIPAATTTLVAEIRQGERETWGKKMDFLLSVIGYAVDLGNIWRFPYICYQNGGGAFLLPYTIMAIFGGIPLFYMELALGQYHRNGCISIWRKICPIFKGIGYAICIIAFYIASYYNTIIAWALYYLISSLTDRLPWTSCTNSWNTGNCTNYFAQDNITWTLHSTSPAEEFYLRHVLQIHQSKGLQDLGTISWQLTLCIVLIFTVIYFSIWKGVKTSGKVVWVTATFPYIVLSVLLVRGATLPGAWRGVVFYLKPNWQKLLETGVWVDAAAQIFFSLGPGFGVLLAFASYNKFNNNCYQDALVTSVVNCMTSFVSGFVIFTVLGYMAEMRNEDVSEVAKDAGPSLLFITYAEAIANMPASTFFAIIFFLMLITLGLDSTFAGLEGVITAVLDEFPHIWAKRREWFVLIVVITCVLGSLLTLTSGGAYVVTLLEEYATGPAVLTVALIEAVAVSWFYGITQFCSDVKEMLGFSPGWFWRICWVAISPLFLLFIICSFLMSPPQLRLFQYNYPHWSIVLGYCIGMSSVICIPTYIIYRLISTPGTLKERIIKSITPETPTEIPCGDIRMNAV
UniProt P41145, whole entry: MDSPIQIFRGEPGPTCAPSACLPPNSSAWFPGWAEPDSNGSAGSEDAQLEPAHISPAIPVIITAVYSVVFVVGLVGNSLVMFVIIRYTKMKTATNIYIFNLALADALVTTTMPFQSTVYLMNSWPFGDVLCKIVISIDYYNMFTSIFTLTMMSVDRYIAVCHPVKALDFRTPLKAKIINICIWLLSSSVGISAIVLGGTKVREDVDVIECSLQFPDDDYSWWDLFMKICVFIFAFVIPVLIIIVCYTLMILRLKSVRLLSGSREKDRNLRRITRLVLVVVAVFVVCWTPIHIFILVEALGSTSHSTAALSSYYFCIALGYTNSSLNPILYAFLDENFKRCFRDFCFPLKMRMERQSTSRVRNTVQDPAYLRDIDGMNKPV
UniProt P23977, whole entry: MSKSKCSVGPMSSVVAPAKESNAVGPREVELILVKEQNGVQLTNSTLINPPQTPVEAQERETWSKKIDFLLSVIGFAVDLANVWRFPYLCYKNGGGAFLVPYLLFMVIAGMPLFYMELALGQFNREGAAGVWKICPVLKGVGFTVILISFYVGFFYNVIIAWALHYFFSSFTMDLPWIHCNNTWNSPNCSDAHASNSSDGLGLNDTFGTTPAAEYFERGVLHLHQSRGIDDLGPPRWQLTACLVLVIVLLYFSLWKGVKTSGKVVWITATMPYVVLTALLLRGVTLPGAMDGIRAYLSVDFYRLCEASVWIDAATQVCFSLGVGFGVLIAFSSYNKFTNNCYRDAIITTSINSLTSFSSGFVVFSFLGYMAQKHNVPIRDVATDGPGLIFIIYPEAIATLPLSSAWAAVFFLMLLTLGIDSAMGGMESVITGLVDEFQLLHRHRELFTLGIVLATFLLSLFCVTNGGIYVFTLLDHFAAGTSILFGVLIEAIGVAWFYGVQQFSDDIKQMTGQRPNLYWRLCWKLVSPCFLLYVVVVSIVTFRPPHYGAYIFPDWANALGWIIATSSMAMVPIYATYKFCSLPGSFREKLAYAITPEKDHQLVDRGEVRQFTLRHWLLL
UniProt Q9NPH5, whole entry: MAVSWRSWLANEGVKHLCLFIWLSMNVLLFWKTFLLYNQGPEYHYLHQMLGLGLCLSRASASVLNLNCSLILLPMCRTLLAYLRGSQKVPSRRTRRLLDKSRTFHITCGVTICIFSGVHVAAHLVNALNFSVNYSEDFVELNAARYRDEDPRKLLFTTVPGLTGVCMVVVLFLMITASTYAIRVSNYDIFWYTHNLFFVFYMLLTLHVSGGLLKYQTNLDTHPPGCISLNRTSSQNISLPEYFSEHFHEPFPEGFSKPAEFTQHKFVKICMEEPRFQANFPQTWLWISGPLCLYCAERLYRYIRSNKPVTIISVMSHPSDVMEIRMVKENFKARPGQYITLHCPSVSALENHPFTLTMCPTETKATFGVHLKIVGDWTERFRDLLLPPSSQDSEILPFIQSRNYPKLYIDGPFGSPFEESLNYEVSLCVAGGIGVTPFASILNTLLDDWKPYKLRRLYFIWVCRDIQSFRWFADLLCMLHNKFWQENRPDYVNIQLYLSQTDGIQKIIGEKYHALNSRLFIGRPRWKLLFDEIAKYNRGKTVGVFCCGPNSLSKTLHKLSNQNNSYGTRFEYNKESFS
UniProt P21462, whole entry: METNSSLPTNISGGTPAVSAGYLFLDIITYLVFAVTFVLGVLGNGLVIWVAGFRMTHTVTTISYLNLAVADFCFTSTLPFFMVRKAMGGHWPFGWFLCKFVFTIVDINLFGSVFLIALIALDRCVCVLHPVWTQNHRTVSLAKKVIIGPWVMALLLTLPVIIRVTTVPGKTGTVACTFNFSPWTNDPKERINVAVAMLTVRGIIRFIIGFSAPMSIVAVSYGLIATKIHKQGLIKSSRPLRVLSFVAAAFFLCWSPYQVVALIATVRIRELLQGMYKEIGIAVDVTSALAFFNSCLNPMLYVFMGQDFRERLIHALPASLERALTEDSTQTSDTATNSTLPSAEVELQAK
UniProt P67660, whole entry, looked up: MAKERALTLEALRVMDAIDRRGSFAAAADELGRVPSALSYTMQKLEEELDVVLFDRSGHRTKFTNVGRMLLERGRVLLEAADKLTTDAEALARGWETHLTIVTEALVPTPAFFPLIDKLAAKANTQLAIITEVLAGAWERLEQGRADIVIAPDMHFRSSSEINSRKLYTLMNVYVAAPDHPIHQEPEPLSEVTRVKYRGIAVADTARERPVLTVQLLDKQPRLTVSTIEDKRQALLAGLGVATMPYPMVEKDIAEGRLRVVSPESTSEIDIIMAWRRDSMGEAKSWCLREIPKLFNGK
UniProt Q9NRD9, whole entry, looked up: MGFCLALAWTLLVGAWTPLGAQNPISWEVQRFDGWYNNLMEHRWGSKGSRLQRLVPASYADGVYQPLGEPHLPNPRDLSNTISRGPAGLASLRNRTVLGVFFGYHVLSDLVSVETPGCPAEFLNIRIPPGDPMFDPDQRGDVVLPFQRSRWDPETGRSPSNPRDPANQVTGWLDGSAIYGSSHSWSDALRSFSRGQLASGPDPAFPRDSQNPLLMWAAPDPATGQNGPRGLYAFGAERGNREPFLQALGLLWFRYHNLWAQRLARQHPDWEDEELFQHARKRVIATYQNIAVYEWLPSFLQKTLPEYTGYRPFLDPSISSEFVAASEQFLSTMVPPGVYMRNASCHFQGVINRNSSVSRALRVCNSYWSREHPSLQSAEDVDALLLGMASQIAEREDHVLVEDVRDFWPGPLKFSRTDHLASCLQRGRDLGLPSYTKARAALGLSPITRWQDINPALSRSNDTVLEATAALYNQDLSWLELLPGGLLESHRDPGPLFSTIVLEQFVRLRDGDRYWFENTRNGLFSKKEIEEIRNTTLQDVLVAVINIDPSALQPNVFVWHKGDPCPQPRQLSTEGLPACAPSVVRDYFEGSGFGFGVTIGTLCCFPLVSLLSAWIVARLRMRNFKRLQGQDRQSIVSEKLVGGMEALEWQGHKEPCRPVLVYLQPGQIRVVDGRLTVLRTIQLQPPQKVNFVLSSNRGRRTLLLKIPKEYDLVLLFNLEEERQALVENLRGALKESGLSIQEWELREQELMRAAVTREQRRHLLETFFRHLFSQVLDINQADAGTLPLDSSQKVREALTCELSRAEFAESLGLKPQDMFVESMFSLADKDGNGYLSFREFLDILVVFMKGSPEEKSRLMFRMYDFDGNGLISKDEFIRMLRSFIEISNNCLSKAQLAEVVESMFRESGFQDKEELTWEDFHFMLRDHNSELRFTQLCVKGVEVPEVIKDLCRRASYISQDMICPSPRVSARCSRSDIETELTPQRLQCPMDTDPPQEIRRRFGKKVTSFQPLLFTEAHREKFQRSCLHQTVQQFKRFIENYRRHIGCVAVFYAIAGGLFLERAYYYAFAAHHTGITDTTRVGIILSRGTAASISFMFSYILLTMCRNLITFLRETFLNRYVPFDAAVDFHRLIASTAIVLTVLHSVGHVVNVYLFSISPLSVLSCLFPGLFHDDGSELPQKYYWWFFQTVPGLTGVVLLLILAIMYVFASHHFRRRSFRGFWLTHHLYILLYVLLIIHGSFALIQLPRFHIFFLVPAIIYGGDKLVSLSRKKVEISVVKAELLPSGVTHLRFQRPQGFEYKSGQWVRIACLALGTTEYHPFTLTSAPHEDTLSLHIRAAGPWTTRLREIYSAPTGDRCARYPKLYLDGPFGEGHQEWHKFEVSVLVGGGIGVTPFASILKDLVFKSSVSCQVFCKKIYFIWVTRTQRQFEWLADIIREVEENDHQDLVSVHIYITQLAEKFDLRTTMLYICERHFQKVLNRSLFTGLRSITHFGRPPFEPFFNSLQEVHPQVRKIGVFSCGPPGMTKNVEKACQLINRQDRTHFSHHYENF
UniProt Q02763, whole entry, looked up: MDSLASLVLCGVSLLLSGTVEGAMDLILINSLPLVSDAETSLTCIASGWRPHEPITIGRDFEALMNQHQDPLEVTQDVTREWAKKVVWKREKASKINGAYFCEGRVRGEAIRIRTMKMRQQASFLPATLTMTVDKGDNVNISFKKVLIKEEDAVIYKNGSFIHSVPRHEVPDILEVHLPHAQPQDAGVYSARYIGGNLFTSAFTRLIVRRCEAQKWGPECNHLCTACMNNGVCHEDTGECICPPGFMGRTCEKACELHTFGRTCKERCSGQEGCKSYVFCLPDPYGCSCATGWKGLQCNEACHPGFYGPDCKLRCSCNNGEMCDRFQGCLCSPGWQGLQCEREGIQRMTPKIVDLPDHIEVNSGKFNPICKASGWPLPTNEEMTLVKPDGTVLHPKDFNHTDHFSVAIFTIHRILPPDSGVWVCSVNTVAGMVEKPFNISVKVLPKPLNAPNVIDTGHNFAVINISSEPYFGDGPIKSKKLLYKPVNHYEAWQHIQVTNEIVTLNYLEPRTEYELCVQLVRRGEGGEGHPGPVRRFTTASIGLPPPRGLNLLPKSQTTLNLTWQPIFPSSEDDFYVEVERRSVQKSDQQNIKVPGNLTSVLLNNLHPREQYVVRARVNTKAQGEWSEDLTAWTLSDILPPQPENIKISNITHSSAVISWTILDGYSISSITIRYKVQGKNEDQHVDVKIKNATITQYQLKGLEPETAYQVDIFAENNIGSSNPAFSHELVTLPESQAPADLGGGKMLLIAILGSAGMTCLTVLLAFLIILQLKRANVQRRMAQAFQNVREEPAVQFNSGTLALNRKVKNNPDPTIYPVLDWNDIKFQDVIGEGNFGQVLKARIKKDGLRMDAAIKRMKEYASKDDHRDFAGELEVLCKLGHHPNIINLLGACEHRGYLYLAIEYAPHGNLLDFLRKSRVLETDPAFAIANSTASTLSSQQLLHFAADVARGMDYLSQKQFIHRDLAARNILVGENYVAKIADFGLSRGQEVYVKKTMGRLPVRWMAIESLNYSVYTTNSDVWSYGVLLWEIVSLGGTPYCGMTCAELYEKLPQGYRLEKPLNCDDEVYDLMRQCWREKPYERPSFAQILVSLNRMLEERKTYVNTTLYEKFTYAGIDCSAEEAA
UniProt Q9KTW3, 1-489: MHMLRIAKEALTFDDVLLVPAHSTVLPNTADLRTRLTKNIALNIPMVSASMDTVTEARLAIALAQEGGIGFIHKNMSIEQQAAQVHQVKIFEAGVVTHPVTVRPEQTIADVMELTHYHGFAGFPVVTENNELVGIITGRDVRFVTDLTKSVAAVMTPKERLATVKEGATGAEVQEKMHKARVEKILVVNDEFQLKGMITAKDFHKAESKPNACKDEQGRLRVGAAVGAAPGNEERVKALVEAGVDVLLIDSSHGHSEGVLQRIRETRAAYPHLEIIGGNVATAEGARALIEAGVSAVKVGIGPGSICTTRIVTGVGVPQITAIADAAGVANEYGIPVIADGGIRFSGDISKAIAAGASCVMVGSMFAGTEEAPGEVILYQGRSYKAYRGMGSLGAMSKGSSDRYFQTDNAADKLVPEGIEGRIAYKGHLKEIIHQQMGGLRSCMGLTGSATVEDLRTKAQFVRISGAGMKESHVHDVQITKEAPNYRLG

| Substance | target | test | test system | conditions | scale | endpoint | result |
| --- | --- | --- | --- | --- | --- | --- | --- |
| CC[C@@](O)(c1ccccc1)[C@H]1C[C@@]23C=C[C@]1(OC)[C@@H]1Oc4c(O)ccc5c4[C@@]12CCN(CC1CC1)[C@@H]3C5 | OPRM1 | binding, radioligand displacement | CHO | with: [3H]DAMGO | – | Ki | 0.0032 ± 0.00038 µM |
| Fc1ccc2nc(Sc3ncnc4c3nnn4Cc3ccccc3)oc2c1 | NADPH oxidase 4 (NOX4, Homo sapiens, UniProt Q9NPH5) | enzyme activity, inhibitor, Amplex Red | cell-free membranes | – | – | IC50 | > 100 µM |
| CC[C@H](C)[C@H](NC(=O)[C@H](Cc1ccc(O)cc1)NC(=O)[C@H](CCC(N)=O)NC(=O)[C@@H](N)CCC(=O)O)C(=O)N[C@@H](CCCCN)C(=O)N[C@@H](Cc1c[nH]c2ccccc12)C(=O)N1CCC[C@H]1C(=O)N[C@@H](Cc1c[nH]c2ccccc12)C(=O)N[C@@H](Cc1ccc(O)cc1)C(=O)N[C@H](C(=O)N[C@@H](Cc1c[nH]c2ccccc12)C(=O)N[C@@H](CC(C)C)C(=O)O)C(C)C | fMet-Leu-Phe receptor (FPR1, Homo sapiens, UniProt P21462) | binding, competition binding | – | 4 °C, with: formyl-Nle-Leu-Phe-Nle-Tyr-Lys-FITC 0.3 nM | – | Ki | 2.05 ± 0.107 µM |
| CO[C@]12CC[C@@]3(C[C@@H]1[C@@H](O)c1ccccc1)[C@H]1Cc4ccc(O)c5c4[C@@]3(CCN1CC1CC1)[C@H]2O5 | Delta-type opioid receptor (OPRD1, Homo sapiens, UniProt P41143) | binding, radioligand displacement | CHO | with: [3H]DPDPE | – | Ki | 0.0013 ± 0.00036 µM |
| NCCc1c[nH]c2ccc(F)cc12 | Slc6a4 | serotonin release, releaser | rat brain synaptosomes | – | – | EC50 | 0.0101 ± 0.0009 µM |
| CO[C@]12CC[C@@]3(C[C@@H]1[C@](C)(O)c1ccccc1C)[C@H]1Cc4ccc(O)c5c4[C@@]3(CCN1CC1CC1)[C@H]2O5 | OPRK1 | binding, radioligand displacement | CHO | with: [3H]diprenorphine | – | Ki | 0.00016 ± 9e-05 µM |
| COc1ccc2c(CCN)c[nH]c2c1 | Slc6a4 | serotonin release, releaser | rat brain synaptosomes | – | – | EC50 | 0.0538 ± 0.0054 µM |
| CO[C@]12C=C[C@@]3(C[C@@H]1[C@H](O)c1ccccc1)[C@H]1Cc4ccc(O)c5c4[C@@]3(CCN1CC1CC1)[C@H]2O5 | OPRK1 | binding, radioligand displacement | CHO | with: [3H]U-69593 | – | Ki | 0.0038 ± 0.00074 µM |
| COc1cccc2c(CCN)c[nH]c12 | Slc6a3 | dopamine release, releaser | rat brain synaptosomes | – | – | EC50 | 2.12 ± 0.088 µM |
| Cc1cccc2oc(Sc3ncnc4c3nnn4Cc3ccccc3)nc12 | NADPH oxidase 2 (CYBB, Homo sapiens, UniProt P04839) | enzyme activity, inhibitor, MCLA chemiluminescence | cell-free membranes | – | – | IC50 | > 100 µM |
| CCN1CCN(Cc2ccc(NC(=O)c3ccc(C)c(/C=C/c4cnc5[nH]ccc5c4OC)c3)cc2C(F)(F)F)CC1 | ALK tyrosine kinase receptor (ALK, Homo sapiens, UniProt Q9UM73) | kinase-CDC37 interaction, inhibitor | human cells | 5 µM | reference: vehicle | log2 fold change | 0.52 |
| Cc1cc(O)ccc1O | Probable HTH-type transcriptional regulator YhaJ, effector-binding domain (yhaJ, Escherichia coli, UniProt P67660) | microscale thermophoresis | – | pH 7.5, primary effector site sample A | – | Kd | 11000 ± 3700 µM |
| CC[C@@](O)(c1ccccc1)[C@H]1C[C@@]23CC[C@]1(OC)[C@@H]1Oc4c(O)ccc5c4[C@@]12CCN(CC1CC1)[C@@H]3C5 | OPRM1 | binding, radioligand displacement | CHO | with: [3H]DAMGO | – | Ki | 0.001 ± 0.00015 µM |
| CC[C@H](N)Cc1c[nH]c2ccccc12 | Slc6a3 | dopamine release, releaser | rat brain synaptosomes | – | – | EC50 | 0.654 ± 0.05 µM |
| CC(C)c1ccc2nc(Sc3ncnc4c3nnn4Cc3ccccc3)oc2c1 | DUOX1 (Homo sapiens, UniProt Q9NRD9) | enzyme activity, inhibitor, Amplex Red | cell-free membranes | – | – | IC50 | > 15 µM |
| CO[C@]12CC[C@@]3(C[C@@H]1[C@](C)(O)c1ccccc1)[C@H]1Cc4ccc(O)c5c4[C@@]3(CCN1CC1CC1)[C@H]2O5 | OPRK1 | G-protein activation, antagonist | – | with: U-69593 | – | Kb | 0.00027 µM |
| NCCc1c[nH]c2cc(F)ccc12 | Slc6a3 | dopamine release, releaser | rat brain synaptosomes | – | – | EC50 | 0.106 ± 0.004 µM |
| CC#C/C(=N\OC[C@H]1COCCN1)c1ccc2ncnc(Nc3ccc(OCc4cccc(F)c4)c(Cl)c3)c2c1 | Angiopoietin-1 receptor (TEK, Homo sapiens, UniProt Q02763) | kinase activity | – | 10 µM | – | inhibition | 42.2% |
| CO[C@]12CC[C@@]3(C[C@@H]1[C@@](C)(O)C(C)(C)C)[C@H]1Cc4c(Br)cc(O)c5c4[C@@]3(CCN1CC1CC1)[C@H]2O5 | OPRM1 | radioligand binding | CHO | with: [3H]DAMGO | – | Ki | 0.0143 ± 0.00088 µM |
| CN(C(=O)Cc1cccc2occc12)[C@H]1CC[C@@]2(CCCO2)C[C@@H]1N1CCCC1 | Kappa-type opioid receptor (Oprk1, Mus musculus, UniProt P33534) | agonist | – | mouse receptor | – | EC50 | 0.00048 µM |
| C[C@@H](Oc1cc[n+]([O-])c2ccccc12)c1cn(-c2ccc(Cl)cc2)nn1 | guaB (Vibrio cholerae, UniProt Q9KTW3) | binding, biolayer interferometry | – | 25 °C, with: IMP 1 mM, NAD+ | – | Kd | > 5 µM |
| Cc1ccc2[nH]cc(CCN)c2c1 | Slc6a4 | serotonin release, releaser | rat brain synaptosomes | – | – | EC50 | 0.139 ± 0.019 µM |
| C=C(C)[C@@H]1[C@H]2OC(=O)[C@@H]1[C@]1(O)C[C@H]3O[C@]34C(=O)O[C@H]2[C@]14C | GABRB3/Gamma-aminobutyric acid receptor subunit alpha-2 (Homo sapiens, UniProt P28472+P47869) | chloride current, inhibitor, whole-cell voltage clamp | L929 | 3 min preincubation, with: GABA at EC90 | – | IC50 | 1.98 µM |
| NCCc1c[nH]c2ccc(Cl)cc12 | Slc6a4 | serotonin release, releaser | rat brain synaptosomes | – | – | EC50 | 0.0191 ± 0.0029 µM |
| [3H]diprenorphine | Mu-type opioid receptor (Oprm1, Rattus norvegicus, UniProt P33535) | radioligand, saturation binding | N2a cell membranes | 1 h, pH 7.4, room temperature, with: [3H]diprenorphine | – | Kd | 0.00012 ± 2e-05 µM |

Repeated from above:
| Substance | target | test | test system | conditions | scale | endpoint | result |
| --- | --- | --- | --- | --- | --- | --- | --- |
| Cc1ccc2[nH]cc(CCN)c2c1 | Slc6a4 | serotonin release, releaser | rat brain synaptosomes | – | – | EC50 | 0.139 ± 0.019 µM |
| C=C(C)[C@@H]1[C@H]2OC(=O)[C@@H]1[C@]1(O)C[C@H]3O[C@]34C(=O)O[C@H]2[C@]14C | GABRB3/Gamma-aminobutyric acid receptor subunit alpha-2 (Homo sapiens, UniProt P28472+P47869) | chloride current, inhibitor, whole-cell voltage clamp | L929 | 3 min preincubation, with: GABA at EC90 | – | IC50 | 1.98 µM |
| NCCc1c[nH]c2cc(F)ccc12 | Slc6a3 | dopamine release, releaser | rat brain synaptosomes | – | – | EC50 | 0.106 ± 0.004 µM |
